Measurements collected from several papers.
A part holds a random share of what one study measured.

Series 1
Target: Prothrombin, mature alpha-thrombin (F2, Homo sapiens, UniProt P00734)
Method: aptamer microarray, sandwich
Molecule type: DNA with 2'F-ANA
Matrix: in vitro
Tested at: 200 nM
Notes: whole 15-mer aptamer, many near background
Added: Cy3 exosite-II aptamer, 400 nM
Reading: higher = stronger binding
Strand: GGTTGGTGTGGTTGG
Modification	mean fluorescence intensity
2'F-ANA at 2 5 6 7 8 9 10 11 12	65.6 a.u.
2'F-ANA at 1 2 6 8 11 12 13	235 a.u.
2'F-ANA at 1 5 6 10 11 13 14 15	49.7 a.u.
2'F-ANA at 2 6 8 12 13 14 15	165 a.u.
2'F-ANA at 2 4 6 7 13 15	186 a.u.
2'F-ANA at 1 3 5 6 7 8	68.7 a.u.
2'F-ANA at 2 3 5 7 9 10 11 12 14	48.4 a.u.
2'F-ANA at 2 3 4 5 6 8 9 10 11 13	56.3 a.u.
2'F-ANA at 5 6 7 11 12 15	111 a.u.
2'F-ANA at 2 9 10 14 15	87.1 a.u.
2'F-ANA at 1 2 6 7 12 13 15	225 a.u.
2'F-ANA at 3 4 5 10 11 13	50.6 a.u.
2'F-ANA at 1 4 6 8 10 11 12 13 15	52.9 a.u.
2'F-ANA at 1 2 3 5 6 8 9 11 12 13 14 15	50.4 a.u.
2'F-ANA at 3 4 6 7 12 15	915 a.u.
2'F-ANA at 1 2 7 11 14 15	53.1 a.u.
2'F-ANA at 2 4 5 7 9 11 12 13 14	44.4 a.u.
2'F-ANA at 1 3 4 6 8 12 13 15	267 a.u.
2'F-ANA at 1 3 5 11 12 13	111 a.u.
2'F-ANA at 1 2 4 6 9 11 15	89.6 a.u.
2'F-ANA at 1 3 5 6 11 15	54.5 a.u.

Series 2
Target: RNA binding protein fox-1 homolog 2, RRM domain, GST-SBP tag (RBFOX2, Homo sapiens, UniProt O43251-10, residues 100-194)
Method: RNA Bind-n-Seq
Molecule type: RNA
Matrix: in vitro
Tested at: 365 nM
Notes: natural RNA segment, single round, ends assumed
Relative to: no-protein control
Reading: higher = stronger binding
All sequences stand within: GGGAGUUCUACAGUCCGACGAUC … UGGAAUUCUCGGGUGCCAA
Construct (chain): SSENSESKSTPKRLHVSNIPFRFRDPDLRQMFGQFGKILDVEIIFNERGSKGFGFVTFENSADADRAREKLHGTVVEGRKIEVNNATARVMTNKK
Strand	RBNS enrichment (R)
UCUGAAAUGUGAAAAGCCUGCACUCUUCCUGUGGGCUGCGCAGUGGGCUCGGGGGUUGGGGGGUGCCGGGGCGAUGCUUCCACCCUGGACUGAGUGUUCGGGGCAGCCUG	0.576
AGGGCUGAGCCUUCUCUUCUGUCUGCAGCCACAAUAGGCUUCCUCAGACGCUGGCUUGAGAGGAGCCCCGCACCUUGGGCACCAGGGAGUGCCAUCCGCCUCCCAGUCCG	0.488
AGCUCAAAAUGUAACUGUUUCUAAACUGUAUUCCAAGAGUGCCUUACCAAAGUAUAAAUUUAUUUCUUAAAAUGUGAGUAAUAGGAAUUUUAAAGAUUUAUAUAAUGCUU	0.484
UUCCCAAAUUAACAAAGCAAACUGAAAUAAUACCUUGAAUAACAGGUUGCCUGUGGUCUCUGUCAUCCUCGUUUCUCUUCUGAAAUGAAUUUCCACCUCUGCCUUUAAGG	0.611
GGGGAAGGUCUUUCAUCUCAGCCAUUUUCUCUUCCCCCCGCCCCCCCUUAGAUGGAGUCUUGCUCUGUCACCCAGGUUGGAGUGCAGUGGCACAAUCAGCUCACUGCAAC	0.26
AGAAAUCAGCCUGAGGCUGUCUUCACAGGCAGACAUCUAUCCUGCUUCCUCUUCCGGGGCUUCUGGGUGGGCAAACAAGGAAUAAAGGUGAUUCUUGGCUGUGGCCCACU	0.373
CAUGAAAGACCCAGAGUGAUAUCCACCUCCACCACUCAGCAGUGACCUUCCUCACUUUCUCUUGUCCCGGCUGCCCCUGGGGGCCAGAGAGACCCUUGCCUUCCUUCUGC	0.921
UGCCACAGACAGCUACCCCCAGAAGGGUCAAUGUUGGGAGUGGUUGUGGCUCUGAGCUGCUCUACAGAGCUUCAGUGUGAGAGGAUCGAGCCAUUGAAAGCUCAUUACCA	0.81

Series 3
Target: Histone acetyltransferase KAT6A, both winged helices, GST fusion (KAT6A, Homo sapiens, UniProt Q92794, residues 1-181)
Method: protein binding microarray
Molecule type: double-stranded DNA, one strand shown
Matrix: in vitro
Tested at: not given
Notes: 8-mer, flanks averaged, mean of 2 arrays, mostly near background
Relative to: not given
Reading: higher = stronger binding
Target sequence (chain): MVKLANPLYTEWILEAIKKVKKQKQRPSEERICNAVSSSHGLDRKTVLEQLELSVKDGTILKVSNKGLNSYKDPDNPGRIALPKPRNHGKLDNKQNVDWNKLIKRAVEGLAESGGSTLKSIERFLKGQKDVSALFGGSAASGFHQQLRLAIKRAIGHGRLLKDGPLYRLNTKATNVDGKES
Strand	E-score
ACCAAAGT	-0.164
GCGGATTA	0.15
AAGATCAG	-0.0453
CAAAGTAC	-0.166
CGAGTTAC	-0.00494
CTGTTGGC	-0.23
CATAAGCG	0.156
AGGGTTCG	-0.129
ATGGTTTC	-0.0291
CGACGACG	0.219
AACGCAAC	-0.0672
CGCGAGTC	0.255
TCAGAACA	-0.0691
CTCTCTGA	-0.0641
ATATGAGA	-0.088
ATCCAGTC	-0.118
ATACTATC	-0.023
CCTGTGCC	-0.0236
CCTGAATA	-0.0383
CTTACCTC	-0.261
CGCAGGGA	-0.0115

Series 4
Target: Centromere-binding protein 1, full length, His-tagged (CBF1, Saccharomyces cerevisiae, UniProt P17106, residues 1-351)
Sequence of UniProt P17106 (whole entry, looked up): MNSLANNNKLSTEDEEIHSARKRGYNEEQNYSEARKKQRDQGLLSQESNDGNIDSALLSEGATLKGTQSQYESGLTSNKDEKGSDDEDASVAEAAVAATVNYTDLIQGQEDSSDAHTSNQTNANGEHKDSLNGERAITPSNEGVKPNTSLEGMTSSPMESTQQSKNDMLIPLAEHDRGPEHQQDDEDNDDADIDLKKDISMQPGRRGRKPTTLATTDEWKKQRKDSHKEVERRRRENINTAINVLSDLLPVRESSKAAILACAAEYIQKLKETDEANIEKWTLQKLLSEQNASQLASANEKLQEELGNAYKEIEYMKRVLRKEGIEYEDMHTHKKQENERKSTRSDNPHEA
Method: competition protein-binding microarray
Molecule type: double-stranded DNA, one strand shown
Matrix: in vitro
Tested at: 2 µM
Notes: whole 60-bp probe, lowest competitor level
Added: Pho4 competitor, 0.05 µM
Reading: higher = stronger binding
All sequences stand within: … GTCTTGATTCGCTTGACGCTGCTG
Strand	fluorescence intensity
CGTCCTAGTGATTGTAATGTGGGTGCCATGAGGAAG	82.6 a.u.
GTCTTGTCTCATTGTCACTCGACTTTCCCCACTTCA	78.2 a.u.
GTACTTTTATAAACACACGTGGAGGAACTTTGGTAT	780 a.u.
GTCTTGTCTCATTGCGGTGTGGGTGTCCCCACTTCA	72.3 a.u.
TTTTTAATGATTTCGCATGTGGATGTGTTCAGTATC	107 a.u.
AAAGCGGTAATTTGACACGTGGGTGCAGATATCTAT	1500 a.u.
CCGATCAGACCAGCAAACGTGCAAACCACTTATGGA	88.9 a.u.
GTCTTGTCTCATTGTCGAGTGGGTGTCCCCACTTCA	77.2 a.u.
ATCGACTCTCCTTGTCACGTTGACTTCTCCTCTGAA	433 a.u.
GCTATTGGCGCATTCAATGTGTCGCAAATGGGCCCA	68.6 a.u.
GGGTTGAACGACCGTCACATGTGTGCGGATGTAGTT	400 a.u.
GTATTATATGATGTATTCGTGCCAGTATCATGCATA	101 a.u.
AGGCCACCGGGAAGTCACGTGGCCGGCTGCTGCCTC	9340 a.u.
TTGGGTTTCAACGTTTCCGTGGGTATGGGTCCACAA	45.5 a.u.
AAAGCGGTAATTTTTCACGTGTTTTCACATATCTAT	1000 a.u.
CCCCTCCTCTCTCCGCACGATTTCTTCCTTTCATAT	91.3 a.u.
ATGCAAATGCCTCACCACGTGCAAATGTGAAAAGAG	1700 a.u.
AAAAATCTCGCAGACCATGTGACGGCCGGTACTCCT	623 a.u.
CTTTCCCGATCTTGTTAGGTGGGTGTAGCACATTTG	60.5 a.u.

A few entries again (series 3):
Strand	E-score
CTCTCTGA	-0.0641
ATATGAGA	-0.088
ATCCAGTC	-0.118
ATACTATC	-0.023
CCTGTGCC	-0.0236
CCTGAATA	-0.0383
CTTACCTC	-0.261
CGCAGGGA	-0.0115
